Literature values that unrelated publications cite.
Protocols differ between the studies behind these lines. Values joined by “and” are separate records of one study, mostly repeats; a detail may differ. Numbers after ± are the reported error.
Organism: Plasmodium falciparum

SMILES | test | test system | conditions | how to read | measurement | result
Cc1[nH]c2ccccc2c1C1CCN(CC2CCC(NC(=O)/C=C/c3ccc(Cl)c(Cl)c3)CC2)CC1 (stereo not drawn) | parasite development | Dd2 | 2 µM |  | inhibition | > 90%
CCCc1cc2c(o1)C(=O)c1ccccc1C2=O | parasite growth | W2 chloroquine-resistant |  |  | IC50 | 11600 nM and 11000 nM
COc1ccc([C@H]2N[C@H](C(=O)O)Cc3c2[nH]c2ccccc32)c(OC)c1 | parasite growth | Dd2 |  |  | IC50 | > 20000 nM
COc1cc2[nH]c(C)c(-c3ccc(Oc4ccc(OC(F)(F)F)cc4)cc3)c(=O)c2cc1Cl | parasite growth |  |  |  | EC50 | ~4 nM
Cc1cc(Cl)ccc1[C@H]1N[C@H](C(=O)O)Cc2c1[nH]c1ccccc21 | parasite growth | Dd2 |  |  | IC50 | 700 ± 90 nM
Cn1cc2c3c1C(=O)c1[nH]cc(-c4ccc(O)cc4)c1C3=[N+](C)CC2 | parasite growth | Dd2, multidrug-resistant |  |  | IC50 | < 50 nM
O=C(O)[C@@H]1Cc2c([nH]c3ccccc23)[C@@H](c2ccccc2)N1 | parasite growth | Dd2 |  |  | IC50 | > 10000 nM
CC(=O)N(O)CCCP(=O)(O)O |  | fresh clinical Cameroonian isolates |  |  | IC50 | 118 nM
Cc1ccc([C@H]2N[C@H](C(=O)O)Cc3c2[nH]c2ccccc32)c(Cl)c1 | parasite growth | Dd2 |  |  | IC50 | 410 ± 40 nM
CCN(CCNc1ccnc2cc(Cl)ccc12)CCNS(=O)(=O)c1cccc2c(N(C)C)cccc12 | parasite growth | HB3, chloroquine-sensitive |  |  | IC50 | 17.5 nM
Cc1c(-c2ccc(Cc3ccc(OC(F)(F)F)cc3)cc2)[nH]c2cccc(F)c2c1=O | parasite growth |  |  |  | EC50 | ~16 nM
Cc1c(-c2ccc(Cc3ccc(OC(F)(F)F)cc3)cc2)[nH]c2cccc(F)c2c1=O |  | cyt b F264L |  | reference: wild type | EC50 fold change | 3 to 4 fold

For quick reference, copied from above:
SMILES | test | test system | conditions | how to read | measurement | result
CC(=O)N(O)CCCP(=O)(O)O |  | fresh clinical Cameroonian isolates |  |  | IC50 | 118 nM
